Measurements from different studies.
Compare with care: the assays were run in different laboratories. ± gives the spread as reported.
EIF4E2: EIF4E2 (Homo sapiens, UniProt O60573)
Chain of UniProt O60573 (whole entry, looked up): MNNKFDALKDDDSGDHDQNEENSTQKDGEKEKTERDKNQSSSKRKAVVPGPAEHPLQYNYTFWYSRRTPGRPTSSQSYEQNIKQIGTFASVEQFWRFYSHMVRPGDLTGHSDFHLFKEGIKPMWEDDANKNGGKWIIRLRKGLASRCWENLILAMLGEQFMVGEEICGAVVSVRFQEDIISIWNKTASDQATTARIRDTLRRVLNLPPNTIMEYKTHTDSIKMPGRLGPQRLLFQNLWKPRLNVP
B1: glutathione reductase (human); sequence looked up; chain MACRQEPQPQGPPPAAGAVASYDYLVIGGGSGGLASARRAAELGARAAVVESHKLGGTCVNVGCVPKKVMWNTAVHSEFMHDHADYGFPSCEGKFNWRVIKEKRDAYVSRLNAIYQNNLTKSHIEIIRGHAAFTSDPKPTIEVSGKKYTAPHILIATGGMPSTPHESQIPGASLGITSDGFFQLEELPGRSVIVGAGYIAVEMAGILSALGSKTSLMIRHDKVLRSFDSMISTNCTEELENAGVEVLKFSQVKEVKKTLSGLEVSMVTAVPGRLPVMTMIPDVDCLLWAIGRVPNTKDLSLNKLGIQTDDKGHIIVDEFQNTNVKGIYAVGDVCGKALLTPVAIAAGRKLAHRLFEYKEDSKLDYNNIPTVVFSHPPIGTVGLTEDEAIHKYGIENVKTYSTSFTPMYHAVTKRKTKCVMKMVCANKEEKVVGIHMQGLGCDEMLQGFAVAVKMGATKADFDNTVAIHPTSSEELVTLR
Chain of UniProt P84090 (whole entry, unmodified, looked up): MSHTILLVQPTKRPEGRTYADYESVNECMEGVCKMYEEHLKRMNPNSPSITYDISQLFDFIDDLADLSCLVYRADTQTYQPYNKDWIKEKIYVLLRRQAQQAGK
Chain of UniProt P11362 (whole entry, looked up): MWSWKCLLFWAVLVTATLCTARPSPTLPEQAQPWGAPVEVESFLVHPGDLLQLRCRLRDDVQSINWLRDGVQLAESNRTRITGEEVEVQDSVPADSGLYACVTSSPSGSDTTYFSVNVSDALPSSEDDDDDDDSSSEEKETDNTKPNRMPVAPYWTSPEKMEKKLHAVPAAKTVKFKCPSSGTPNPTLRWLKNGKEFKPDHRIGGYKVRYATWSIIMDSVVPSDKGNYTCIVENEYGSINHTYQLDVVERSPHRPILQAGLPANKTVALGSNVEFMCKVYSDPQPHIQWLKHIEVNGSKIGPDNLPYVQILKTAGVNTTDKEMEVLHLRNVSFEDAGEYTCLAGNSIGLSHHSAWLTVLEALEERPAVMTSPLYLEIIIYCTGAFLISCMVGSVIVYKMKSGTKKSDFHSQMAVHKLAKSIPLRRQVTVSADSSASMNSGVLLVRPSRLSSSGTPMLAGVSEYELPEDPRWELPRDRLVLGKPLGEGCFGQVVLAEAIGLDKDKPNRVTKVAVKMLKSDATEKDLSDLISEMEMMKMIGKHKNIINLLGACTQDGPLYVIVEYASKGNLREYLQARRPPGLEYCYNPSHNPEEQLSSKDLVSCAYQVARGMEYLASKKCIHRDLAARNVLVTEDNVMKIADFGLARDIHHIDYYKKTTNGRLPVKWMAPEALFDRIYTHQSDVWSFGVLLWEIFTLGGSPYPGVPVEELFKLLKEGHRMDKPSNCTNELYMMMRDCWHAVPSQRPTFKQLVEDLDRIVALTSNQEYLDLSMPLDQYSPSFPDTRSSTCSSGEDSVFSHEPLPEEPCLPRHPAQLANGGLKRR
Chain of UniProt Q9QUK6 (whole entry, looked up): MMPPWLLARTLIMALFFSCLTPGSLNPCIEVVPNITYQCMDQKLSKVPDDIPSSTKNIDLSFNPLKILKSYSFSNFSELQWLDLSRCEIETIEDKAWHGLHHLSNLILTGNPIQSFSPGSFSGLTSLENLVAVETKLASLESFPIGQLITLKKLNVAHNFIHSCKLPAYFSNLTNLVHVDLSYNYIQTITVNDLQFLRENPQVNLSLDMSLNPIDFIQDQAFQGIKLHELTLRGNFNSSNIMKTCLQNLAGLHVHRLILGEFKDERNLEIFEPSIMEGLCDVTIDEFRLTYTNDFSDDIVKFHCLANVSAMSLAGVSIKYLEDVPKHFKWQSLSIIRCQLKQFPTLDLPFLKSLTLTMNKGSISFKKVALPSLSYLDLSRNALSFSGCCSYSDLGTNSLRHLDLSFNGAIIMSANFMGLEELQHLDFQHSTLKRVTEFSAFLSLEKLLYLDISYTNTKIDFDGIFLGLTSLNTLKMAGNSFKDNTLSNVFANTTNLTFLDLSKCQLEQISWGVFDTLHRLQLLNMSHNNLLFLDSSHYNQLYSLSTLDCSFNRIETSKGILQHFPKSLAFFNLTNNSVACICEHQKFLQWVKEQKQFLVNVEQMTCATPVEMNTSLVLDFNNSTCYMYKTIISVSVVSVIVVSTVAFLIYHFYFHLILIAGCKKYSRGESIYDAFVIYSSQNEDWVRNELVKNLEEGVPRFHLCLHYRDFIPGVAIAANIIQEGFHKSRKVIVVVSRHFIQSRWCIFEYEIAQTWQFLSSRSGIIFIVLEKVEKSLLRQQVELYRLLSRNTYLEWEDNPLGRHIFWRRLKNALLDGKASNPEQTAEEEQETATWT

Molecule	target or system	assay	test system	conditions	scale	measurement	value
PRTARHAPAVRKFSPDLKLLKDVKISVSFTE (DGCR8(96-126), SUMO-tagged)	Enhancer of rudimentary homolog (Homo sapiens, UniProt P84090, F60A)	binding, isothermal titration calorimetry	peptide	293 K, together with: DGCR8 peptide, SUMO-tagged		Kd	34.5 ± 9.96 µM
KYKLADYRYGREEMLALFLK (GIGYF2(35-54) peptide; sequence looked up)	EIF4E2	ITC	peptide	pH 7.0, 20 °C, GB1-stabilized peptide titration		ΔH	-22 ± 2 kcal/mol
human Fas	PP6C (human)	co-immunoprecipitation, IP-MS	CYB5R4 knockout cells	concentration not given	relative to: CYB5R4 knockout over parental	log2 fold change	-0.31
FGA (Homo sapiens, UniProt P02671)	A4GALT (Homo sapiens, UniProt Q9NPC4)	cross-linking MS		together with: DSSO		cross-linked residues	K100 to K3
PRTARHAPAVRKASPDLKLLKDVKISVSFTE (DGCR8 peptide F108A)	Enhancer of rudimentary homolog (Homo sapiens, UniProt P84090)	ITC	peptide	293 K, wild type, together with: DGCR8 peptide		Kd	66.3 ± 14.8 µM
KYKLADYRYGREEMLALYVK (GIGYF1(33-52) peptide; sequence looked up)	EIF4E2	ITC	peptide	pH 7.0, 20 °C, GB1-stabilized peptide titration		ΔG	-8.7 kcal/mol
colistin	Klebsiella pneumoniae	broth microdilution	clinical isolate RKI-No_600/16			MIC	32 µg/mL
ARTKQTARKSTG (histone H3 peptide 1-12; K4me1)	Ehd3 417-547 D496A (Oryza sativa, UniProt Q6ZJM9)	ITC	peptide			molecule per partner	0.63
B1 (glutathione reductase)	PP6C (human)	co-immunoprecipitation, IP-MS	CYB5R4 knockout cells	concentration not given	relative to: CYB5R4 knockout over parental	log2 fold change	0.2
HMGB1	Toll-like receptor 4 (Mus musculus, UniProt Q9QUK6)	fluorescence titration		pH 7.4, 25 °C, together with: BODIPY FL-labelled alarmin		Kd	0.186 µM
FGF1	FGFR1 (Homo sapiens, UniProt P11362)	receptor phosphorylation, immunoblotting	Flp-In-293 expressing FGFR1	10 min		lowest maximal concentration	16 nM

Some of these lines once more:
Molecule	target or system	assay	test system	conditions	scale	measurement	value
PRTARHAPAVRKASPDLKLLKDVKISVSFTE (DGCR8 peptide F108A)	Enhancer of rudimentary homolog (Homo sapiens, UniProt P84090)	ITC	peptide	293 K, wild type, together with: DGCR8 peptide		Kd	66.3 ± 14.8 µM
